# Results collected from several papers.
# A part holds a random share of what one study measured. Substitutions count along the parent as printed.

# Sample 1
# Target: Histone acetyltransferase KAT6A, winged helix 2, GST fusion (KAT6A, Homo sapiens, UniProt Q92794, residues 85-181)
# Method: protein binding microarray
# Molecule type: double-stranded DNA, one strand shown
# Medium: in vitro
# Concentration: not given
# Setting: 8-mer, flanks averaged, mean of 2 arrays, mostly near background
# Reference: not given
# Reading: higher = stronger binding
# Residues (chain): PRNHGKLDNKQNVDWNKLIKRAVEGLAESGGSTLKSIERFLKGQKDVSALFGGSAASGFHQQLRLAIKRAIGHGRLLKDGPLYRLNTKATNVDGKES
Sequence,E-score
CAGATGCA,-0.186
GCAGCACC,0.0831
TATTAGAA,0.039
GTTACTTA,-0.0025
ACGCTCGC,0.0279
ATCATGTA,-0.0934
AAAAAGAA,0.0684
ACAATGGC,-0.116
GTTGATGA,0.0215
CTAGCTTA,-0.135
ATCAGGCC,0.00509
CTCTCGGA,0.107
ATAAATAC,-0.0131
AGGAGATC,0.0153
AGCCTTGC,0.122
ACGACTGG,-0.0323
ACTTCGTA,-0.0711
CAACAACC,0.0348
GATCTTCC,0.0482
CCAAGGCA,0.101
AGCGTCAA,0.0317
ACGTCACG,-0.168
TCTCCCAA,0.0176
CATTCTCA,-0.0416

# Sample 2
# Target: ABI1, truncated, D143A, DHFR fusion (Arabidopsis thaliana)
# Method: DHFR PCA, deep sequencing
# Medium: yeast
# Setting: methotrexate growth selection, single substitutions
# Added: (+)-ABA 58 µM
# Reference: wild-type fitted maximum
# Reading: higher = stronger binding
# Starting sequence: PYL1, truncated, DHFR fusion (Arabidopsis thaliana); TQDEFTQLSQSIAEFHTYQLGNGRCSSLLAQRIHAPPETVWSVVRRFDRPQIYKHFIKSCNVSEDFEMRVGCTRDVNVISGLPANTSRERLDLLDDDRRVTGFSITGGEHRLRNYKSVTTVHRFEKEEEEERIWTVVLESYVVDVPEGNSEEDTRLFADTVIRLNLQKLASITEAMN; partner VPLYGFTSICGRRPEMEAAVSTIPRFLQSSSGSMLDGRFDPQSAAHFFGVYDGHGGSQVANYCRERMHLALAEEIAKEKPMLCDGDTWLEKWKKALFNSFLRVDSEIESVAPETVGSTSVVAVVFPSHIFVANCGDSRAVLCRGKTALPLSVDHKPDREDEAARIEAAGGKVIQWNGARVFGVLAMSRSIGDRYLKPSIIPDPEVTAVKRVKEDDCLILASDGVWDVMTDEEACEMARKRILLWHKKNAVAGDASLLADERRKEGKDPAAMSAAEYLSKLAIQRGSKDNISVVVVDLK
Change,relative binding score [%]
I172A,59.8
S150T,85.6
G23M,73.3
L169A,4.52
D48R,17.9
M68D,54.2
R45M,-5.65
F5N,72.1
S140M,-3.46
F124H,76.1
N77E,93.6
P83C,22.4
N165C,-1.16
V121W,3.62
I162P,4.84
L91G,-2.54
K58Q,78.6
D159I,-6.53
P36C,75.3
A175G,87.4
R74P,-6.78
T119P,-7.5
L112P,14.5
H55G,88.4
E14Q,79.3

# Sample 3
# Target: PABPC1L2, full length, GST fusion (mouse, UniProt A0ABA7IW68)
# Method: RNAcompete
# Molecule type: RNA
# Medium: in vitro
# Concentration: 20 nM
# Setting: 7-mer, probes averaged, single round
# Reference: mean of 7-mers
# Reading: higher = stronger binding
# Construct (chain): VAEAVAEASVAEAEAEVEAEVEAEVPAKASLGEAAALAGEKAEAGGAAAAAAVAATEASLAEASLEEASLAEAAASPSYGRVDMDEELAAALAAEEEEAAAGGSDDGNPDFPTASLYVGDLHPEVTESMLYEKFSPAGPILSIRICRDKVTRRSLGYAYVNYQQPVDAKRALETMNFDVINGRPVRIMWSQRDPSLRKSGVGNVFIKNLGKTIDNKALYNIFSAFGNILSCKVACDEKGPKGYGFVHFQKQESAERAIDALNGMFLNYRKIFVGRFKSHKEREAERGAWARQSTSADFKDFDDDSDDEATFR
Sequence,7-mer Z-score
CACACUA,-0.012
AGGGAUC,0.305
AUCAAAC,0.247
CUACGCU,-0.267
AAGACUG,0.178
CCGAUUA,-0.242
UGCAGAC,-0.0826
AUCUCUC,-0.313
AAUUGGA,0.401
GAGUGGA,0.0696
UCAAGGU,-0.124
UGUGGUG,-0.166
CCCCCUC,-0.559
UGUAACU,-0.258
CAAGCUU,-0.271
UCGUCGC,-0.583
AAGUUUC,-0.166

# Sample 4
# Target: CCNE1, cyclin fold, Cln2 fusion (human)
# Method: yeast growth competition, sequencing
# Medium: yeast
# Setting: strong parent motif
# Reference: not given
# Reading: higher = stronger binding
# Starting sequence: BRCA2 docking peptide (human); PSIKRNLLNEFDR; partner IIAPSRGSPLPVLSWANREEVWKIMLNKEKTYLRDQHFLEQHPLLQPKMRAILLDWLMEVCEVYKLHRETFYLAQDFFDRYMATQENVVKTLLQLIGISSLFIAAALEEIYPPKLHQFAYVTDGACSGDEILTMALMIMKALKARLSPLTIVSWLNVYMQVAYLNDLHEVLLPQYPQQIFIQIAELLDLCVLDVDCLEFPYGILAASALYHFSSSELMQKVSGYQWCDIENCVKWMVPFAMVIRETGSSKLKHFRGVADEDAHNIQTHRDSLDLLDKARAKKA
Change,normalised enrichment score
PSIIRNLLNEFDR [K4I],0.902
SSIKRNLLNEFDR [P1S],1.68
PSIKRNLLNEFER [D12E],1.95
PSIKRNLLNERDR [F11R],0.0115
PGIKRNLLNEFDR [S2G],1.4
PSIKRNLLREFDR [N9R],1.9
PSIKRNLSNEFDR [L8S],1.12
PSIKRNLMNEFDR [L8M],2.28
PSIKRNLLNEFDD [R13D],2.43
PSIKRNLLNETDR [F11T],0.72
PSIKRNLLNEFAR [D12A],1.69
PSIKRNLLNHFDR [E10H],1.18
PSIKPNLLNEFDR [R5P],0.211
PSIKRNWLNEFDR [L7W],0.482
PSIKRNLYNEFDR [L8Y],-0.0165
PYIKRNLLNEFDR [S2Y],1.02
PSIKRNLGNEFDR [L8G],-0.335
PSLKRNLLNEFDR [I3L],1.02
PSIWRNLLNEFDR [K4W],-0.656
PSIKRNLLAEFDR [N9A],3.2
PSIKRNLLNEKDR [F11K],0.209
PSIKRKLLNEFDR [N6K],1.03
PSIKRNLWNEFDR [L8W],-0.136
PSIKRNLLNFFDR [E10F],1.33
PSIKRNLPNEFDR [L8P],0.011

# Sample 5
# Target: RNA binding protein fox-1 homolog 2, RRM domain, GST-SBP tag (RBFOX2, Homo sapiens, UniProt O43251-10, residues 100-194)
# Method: RNA Bind-n-Seq
# Molecule type: RNA
# Medium: in vitro
# Concentration: 365 nM
# Setting: natural RNA segment, single round, ends assumed
# Reference: no-protein control
# Reading: higher = stronger binding
# Residues (chain): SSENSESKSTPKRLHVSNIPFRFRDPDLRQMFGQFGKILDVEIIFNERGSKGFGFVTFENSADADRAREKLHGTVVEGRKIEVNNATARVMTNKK
Sequence,RBNS enrichment (R)
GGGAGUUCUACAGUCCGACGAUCACAGCCCAGGUCACACGUGGGGUCAGCAGAGGUACCACGAAGCUACCUUUUGGGAUGAUUGCUCGAUUGUUUGGUUUUUAAAUCUGAGAAGCCUAGAUAACUAAUCUGCUUGGAAUUCUCGGGUGCCAA,0.347
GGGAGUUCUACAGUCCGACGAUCACUGUAAAAUCAACAGGAAAUGGCCACUGGGAGAGAAGGAUUUGGUAUUGGGUGAGGGGCUUUCUCCCUUUACCUGCCUCUUCUUGCUUGCUAAUAGUAAGUUCUUUGUGUGGAAUUCUCGGGUGCCAA,0.322
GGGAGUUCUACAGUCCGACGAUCUCAUCUGUACUAUUCUGUGUUACUCUUGGUUUCUGGCCACUUUUCAGAAUGAAGAUGAAUGGCCUGACCAGCUAUCUAGGGUUUGGGGAGAUGCAAAAUUGUAAAAUUCCUGGAAUUCUCGGGUGCCAA,0.614
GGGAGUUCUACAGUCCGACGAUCCUAGAACCAGUAACACUGAGACAUUGUUACCAGUCCUGAGGCUGAGAUUCAAUAAAAACUUACAGCUAUGAUAGUGUUGUGUGACUUUAUAGAAAUCUGAUUUUAUAACUUGGAAUUCUCGGGUGCCAA,0.361
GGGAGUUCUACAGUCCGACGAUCAGGUACUAAUUUGUAGCUGCUCUGAAGUAAGGAUUUCGGAUUCAGCUGGUAGGGAAAGACUCUGCACCUGCUGUCUUAGGGAAGAAAUGGUUCAAAUCCAUGUGGUGACAUGGAAUUCUCGGGUGCCAA,0.604
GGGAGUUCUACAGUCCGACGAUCGCAAACAUAAAUGUAAAUACACUGAUUUAUUCUGUUACUAGAUCAGGUUUUAGGGUCCUGCAAAAGGCUAGCUCGGCACUACACUAGGGAAUUUGCUCCUGUUCUGUCACUGGAAUUCUCGGGUGCCAA,0.488
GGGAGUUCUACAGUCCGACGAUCUCUUGUGAUAACCACGCUACUUGCCUUUGCUAGAGCUCUCUGUGGCCAACCCUGGGAAAUGCUAAUCAUGACCUUCACACCAAACAUUCAGAAGUAGGCUGUGUCCCAUCUGGAAUUCUCGGGUGCCAA,0.375
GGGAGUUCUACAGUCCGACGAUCACUAGGCUGGGCCUGGCCCCAGAAGCCGGGCAGUUCCUGCCUCCUUCUCCACUUUUAUAAAGCCAAGCCUUUCCCCAGAAUAGUAUUAACUCCUGGUGCUUUGUACUACUUGGAAUUCUCGGGUGCCAA,0.285
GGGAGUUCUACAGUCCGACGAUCCCCGAGCCACGGUGUUCAGUCAGCCCACAGGAAUAUGCAAGACCCAUCUCCAAAAGUUUGUCUUUGAUUUUUUCCAAGCCCUUAGCCCCAUAAGCUUUGAAUCCUGUAGUUGGAAUUCUCGGGUGCCAA,0.453
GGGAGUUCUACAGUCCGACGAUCUAAACCUAUUGCUUGAAGCUUUGAACAGCUGAGAAGUGGUCUGGAGAGGCAGAAGCUGAAGGUUCUAUAUCCAGUGUGUUUUAUGUCCAGAAUGUAAGAGAGUUGUCUAAUGGAAUUCUCGGGUGCCAA,1.18
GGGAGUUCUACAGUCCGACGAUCCCUUUCUUUUCUUUCUUUUUUAAACUCUCUUUUCUCUGCUUCCCUUCCUUUGGGUUUCCAGAGUCUCUGGGAGAAGAAGGGUGGGCGGGUGGACCCAGAGCGACCCAGAUUGGAAUUCUCGGGUGCCAA,0.497
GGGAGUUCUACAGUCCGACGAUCAAAACGACUCCAAAGUUAGACCUGCCUGUUGGGGAGAAUUCUAUAGACAGAAGGUCAAUGUUGUCCCCAUCCAUAGGGGUUGAAUUACCUUGCUGUUAAGUGGUCUUCCCUGGAAUUCUCGGGUGCCAA,0.328

# Sample 6
# Target: JUND, bZIP domain (human)
# Method: DHFR protein complementation
# Medium: yeast
# Setting: single substitutions, most at no-binding floor
# Reference: wild-type JUN-FOS pair
# Reading: higher = stronger binding
# Starting sequence: JUN, bZIP domain (human); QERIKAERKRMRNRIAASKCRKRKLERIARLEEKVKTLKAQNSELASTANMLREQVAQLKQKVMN
Change,binding fitness [natural log]
I28D,-1.38
L31F,-1.48
E44G,-1.25
L52F,-1.44
E32W,-1.28
L31A,-1.42
S47P,-1.35
M51P,-1.43
V56T,-1.38
V35K,-1.29
I28P,-1.3

# Repeated from above (sample 4):
Change,normalised enrichment score
PSIKRNLLNEFDD [R13D],2.43
PSIWRNLLNEFDR [K4W],-0.656
PSIKRNLLNEFER [D12E],1.95
PSIKRKLLNEFDR [N6K],1.03
PSIKRNLLNFFDR [E10F],1.33
PSIKRNLLNHFDR [E10H],1.18
PSLKRNLLNEFDR [I3L],1.02
PSIKPNLLNEFDR [R5P],0.211
PGIKRNLLNEFDR [S2G],1.4
PSIKRNLGNEFDR [L8G],-0.335
PSIKRNLLREFDR [N9R],1.9
PSIKRNLWNEFDR [L8W],-0.136
SSIKRNLLNEFDR [P1S],1.68
PSIKRNLMNEFDR [L8M],2.28
PSIKRNLYNEFDR [L8Y],-0.0165
PSIKRNLLNEFAR [D12A],1.69
PSIKRNLLNERDR [F11R],0.0115
PSIKRNLPNEFDR [L8P],0.011
PSIKRNLSNEFDR [L8S],1.12
